# Measured values collected from several papers.
# A part holds a random share of what one study measured.

# Block 1
# Target: Prothrombin, mature alpha-thrombin (F2, Homo sapiens, UniProt P00734)
# Technique: aptamer microarray, sandwich
# Molecule type: DNA with 2'F-ANA
# Sample: in vitro
# Tested at: 200 nM
# Setting: whole 15-mer aptamer, many near background
# With: Cy3 exosite-II aptamer, 400 nM
# Direction: higher = stronger binding
# Strand: GGTTGGTGTGGTTGG
Modification,mean fluorescence intensity [a.u.]
2'F-ANA at 1 4 6 9 10 11 12,60.1
2'F-ANA at 2 3 5 8 10 12 14 15,48.5
2'F-ANA at 1 2 3 4 5 6 7 10 12,47.4
2'F-ANA at 1 3 5 6 7 9 10 11 13 14 15,51.9
2'F-ANA at 3 5 6 7 8 12 15,296
2'F-ANA at 1 2 3 4 9 10 11 12 14 15,115
2'F-ANA at 2 4 5 6 12,161
2'F-ANA at 1 2 6 7 8 9 10 12 13 14 15,50.3

# Block 2
# Target: RING finger protein unkempt homolog, zinc fingers 1-6, GST-SBP tag (UNK, Homo sapiens, UniProt Q9C0B0, residues 30-357)
# UniProt Q9C0B0, sequence (30-357, looked up): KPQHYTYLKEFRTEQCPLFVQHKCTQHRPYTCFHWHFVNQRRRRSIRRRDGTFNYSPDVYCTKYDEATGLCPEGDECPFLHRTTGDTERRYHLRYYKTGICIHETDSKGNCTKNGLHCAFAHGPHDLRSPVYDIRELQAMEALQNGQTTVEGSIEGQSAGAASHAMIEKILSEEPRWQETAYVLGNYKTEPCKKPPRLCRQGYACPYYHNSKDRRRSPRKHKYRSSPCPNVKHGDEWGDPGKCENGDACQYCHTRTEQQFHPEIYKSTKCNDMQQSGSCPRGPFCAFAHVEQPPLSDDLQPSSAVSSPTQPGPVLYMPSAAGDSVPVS
# Technique: RNA Bind-n-Seq
# Molecule type: RNA
# Sample: in vitro
# Tested at: not given
# Setting: RNA with constant flanks, human and mouse sites, ends assumed
# Reference: input RNA pool
# Direction: higher = stronger binding
# Constant ends, left off below: GGGAGUUCUACAGUCCGACGAUC … CAACAGAGGAUUGAGCAUCA
Strand,bound/input enrichment [ratio]
UCUUGAAACUUAAACUCUGUGCUUGUAGGAUACUGUAACCUUUUUGUCUUUUUUUUUUUUUUUUUUUUUAAACCUCCACCUCCAGUGGCUGUGACUGGUCCCAGUGAUUAUACGUUAUUG,1.96
GCCGCUGGGGAUGCCAAGUCCAUCAUCACAUGCAGGGUGUCCCUUCUGGACGGUACAGAUGUCAGUGUGGACUUGCCGAAAAAAGCCAAAGGACAGGAGCUGUUUGACCAAAUCAUGUAU,0.142
CUCAGAGAUGUGGCAUAUCAGUAUGUGAAAAAGGGGGCUCGUAUAUUUGUGGAAGGGAAAGUGGACUAUGGCGAGUACAUGGAUAAAAACAAUGUGAGGCGGCAAGCAACAACAAUCAUA,0.31
AGCAAGGUGGUACAGAAGUUGGUCCUGCCCUUUGGGCGACUGAACUACCUGCCCCUGGAACAGCAGUUUAUGCCCUGCCUUGAGAGGAUCCUGGCUCGGGAAGCAGGGGUGGCACCCCUG,0.153
CUUUUAUGCGACCAUUGUUGCAGUGGUCGGGCUUCAUGUGGUGCUGGCAAUUUUCGUCUUCAUAGUGUGGAAGGAGGGCUUGCCCCAGUGGCGGGAAAACAAAAACGAAUAGAGCAGCUU,0.48
GUGCUGAGUGAACUGGAGCCACUGUGUCUGGCAGAACAGGACUUCAUAAGUAAAUUUUUCAAACUACAGCAGCAUCAAAACAUGUCUGCAUCAAUGACUGAAGCAGAAGACCUGGAUGGA,0.459

# Block 3
# Target: Sal-like protein 4, full length isoform B (SALL4, Homo sapiens, UniProt Q9UJQ4-2, residues 1-616)
# Technique: universal PBM
# Molecule type: double-stranded DNA, one strand shown
# Sample: in vitro
# Tested at: not given
# Setting: 8-mer, flanks averaged, mean of replicates
# Direction: higher = stronger binding
# Construct (chain): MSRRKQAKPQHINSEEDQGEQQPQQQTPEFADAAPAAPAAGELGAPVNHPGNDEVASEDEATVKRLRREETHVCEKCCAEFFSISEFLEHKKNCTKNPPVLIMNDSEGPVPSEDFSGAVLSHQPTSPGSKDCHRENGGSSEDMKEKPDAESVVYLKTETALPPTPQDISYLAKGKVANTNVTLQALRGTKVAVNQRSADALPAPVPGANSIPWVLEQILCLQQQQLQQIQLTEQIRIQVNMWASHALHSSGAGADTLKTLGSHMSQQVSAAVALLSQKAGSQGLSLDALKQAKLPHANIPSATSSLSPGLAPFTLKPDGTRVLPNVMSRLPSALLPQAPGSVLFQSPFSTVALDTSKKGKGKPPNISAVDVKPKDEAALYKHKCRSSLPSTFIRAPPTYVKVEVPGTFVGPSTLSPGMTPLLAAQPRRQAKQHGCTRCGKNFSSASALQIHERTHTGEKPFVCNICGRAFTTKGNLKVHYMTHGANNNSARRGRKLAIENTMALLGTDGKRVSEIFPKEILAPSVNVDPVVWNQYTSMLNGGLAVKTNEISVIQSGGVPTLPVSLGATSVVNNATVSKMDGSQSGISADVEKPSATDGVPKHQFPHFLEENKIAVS
Strand,E-score
GATCATTA,0.196
AATTGTCT,0.185
CGTGGACC,-0.338
ACCCCTTC,-0.144
GCCGTCTA,-0.202

# Further values, each from its own experiment
Substance,target,test,system,conditions,scale,quantity,result
"PhoQ, residues 284 288 289 292 302 303 SSCCRF","PhoP, residues 12 14 15 18 19 YHFSH (Escherichia coli, UniProt P23836)","Sort-seq, refers to: YFP reporter",E. coli,"PhoQ-PhoP variant library, with: 10 µM Mg2+","reference: high Mg2+ state, higher = stronger signaling",fold induction,4.35

# Excerpt of the above (further values, each from its own experiment):
Substance,target,test,system,conditions,scale,quantity,result
"PhoQ, residues 284 288 289 292 302 303 SSCCRF","PhoP, residues 12 14 15 18 19 YHFSH (Escherichia coli, UniProt P23836)","Sort-seq, refers to: YFP reporter",E. coli,"PhoQ-PhoP variant library, with: 10 µM Mg2+","reference: high Mg2+ state, higher = stronger signaling",fold induction,4.35
